Measured values of several laboratories.
Protocols differ between the studies behind these lines. Values joined by “and” are separate records of one study, mostly repeats; a detail may differ.
RPS6KA1: Ribosomal protein S6 kinase alpha-1 (RPS6KA1, Homo sapiens, UniProt Q15418)
UniProt Q15418, sequence (whole entry, looked up): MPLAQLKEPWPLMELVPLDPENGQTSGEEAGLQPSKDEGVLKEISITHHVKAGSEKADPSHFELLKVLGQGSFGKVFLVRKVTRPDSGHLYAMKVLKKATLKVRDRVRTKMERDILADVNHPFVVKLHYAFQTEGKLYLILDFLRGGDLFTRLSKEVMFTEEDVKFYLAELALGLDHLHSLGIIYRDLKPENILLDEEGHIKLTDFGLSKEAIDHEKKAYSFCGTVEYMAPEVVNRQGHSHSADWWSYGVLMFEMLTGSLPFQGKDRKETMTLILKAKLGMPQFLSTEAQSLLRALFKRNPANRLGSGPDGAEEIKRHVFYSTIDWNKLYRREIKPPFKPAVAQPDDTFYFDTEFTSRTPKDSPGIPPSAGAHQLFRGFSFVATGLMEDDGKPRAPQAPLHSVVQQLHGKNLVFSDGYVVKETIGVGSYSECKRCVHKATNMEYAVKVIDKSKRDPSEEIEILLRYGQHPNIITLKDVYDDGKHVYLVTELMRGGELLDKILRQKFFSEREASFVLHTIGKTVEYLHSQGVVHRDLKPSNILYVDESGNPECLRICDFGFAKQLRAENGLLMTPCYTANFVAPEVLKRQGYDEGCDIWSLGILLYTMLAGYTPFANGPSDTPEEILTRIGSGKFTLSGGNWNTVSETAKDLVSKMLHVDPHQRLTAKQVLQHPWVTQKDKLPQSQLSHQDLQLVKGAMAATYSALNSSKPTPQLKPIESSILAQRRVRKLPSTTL

O=C=[N][Ru-4]123([n]4c5ccc(O)cc5c5c6c(c7cc(F)c[n+]1c7c54)C(=O)NC6=O)[S+]1CC[S+]2CC[S+]3CC1 (centres unmarked) — remaining activity (RPS6KA1; enzyme activity; 100 nM, human enzyme, added: 10 µM ATP; relative to: untreated): 26%
COCC12C(=O)NC3C4(C(OC)CC1O)C1CC5(O)C(OC)C(O)C(OC(C)=O)(C1C5OC(=O)c1ccccc1)C3(O)C(OC)C24 (centres unmarked) — remaining activity (RPS6KA1; kinase activity, inhibitor, ProQinase kinase profiling; 25 µM; relative to: control): 73% and 89%
CNC(=O)C[C@H](Cc1ccc(C#N)cc1)NC(=O)c1cc(-c2ccc(CN[C@H](C)c3ccc(C)cc3)o2)ccc1Cl — activity vs control (RPS6KA1; enzyme activity, inhibitor; 1 µM): 91%
Cc1cccc(-c2ccc3nc(NC(=O)C4CCCO4)nn3c2)c1 (centres unmarked) — remaining activity (RPS6KA1; enzyme activity, Dundee kinase panel; 10 µM): 62%
C=CC(=O)Nc1cccc(-c2cnc3[nH]cc(C(=O)NC(C)(C)C)c3n2)c1 — inhibition (RPS6KA1; kinase activity; 0.1 µM): 10% and 9%
CCn1cc(C(=O)O)c(=O)c2c(N)c(F)c(NC3CCCCC3)cc21 — inhibition (RPS6KA1; kinase activity; 0.1 µM, added: ATP at Km): 3.9%
Cc1cccc(-c2ccc3nc(NC(=O)C4CCOCC4)nn3c2)c1 — remaining activity (RPS6KA1; enzyme activity, Dundee kinase panel; 10 µM): 70%
COc1ccc(C(=O)/C=C/c2ccccc2-c2c[nH]c3ccc(C#N)cc23)c(O)c1 — inhibition (RPS6KA1; enzyme activity, inhibitor; 20 µM): 25%
COc1c(OCCCN2CCOCC2)ccc2c1N=C(NC(=O)c1cnc(N)nc1)N1CCN=C21 — remaining activity (RPS6KA1; kinase activity, inhibitor; 1 µM; relative to: untreated control): 70%
Nc1nc(Nc2ccccc2)sc1C(=O)c1ccccc1 — remaining activity (RPS6KA1; enzyme activity, inhibitor; 10 µM): 24%
CS(=O)(=O)Nc1cccc(-c2csc3cnc(Nc4ccc(N5CCN(CCCCCOc6cccc7c6C(=O)N(C6CCC(=O)NC6=O)C7=O)CC5)cc4)nc23)c1 (centres unmarked) — inhibition (Ribosomal protein S6 kinase alpha-1, kinase domain 2 (RPS6KA1, Homo sapiens, UniProt Q15418); probe labelling, inhibitor, KiNativ chemoproteomics; MOLT-4; 1 µM): -16.2%
COc1cc(-n2cc3cc(F)cc(C(N)=O)c3n2)cc(Cl)c1C1CC(O)(CCO)Cc2ccccc21 (centres unmarked) — inhibition (RPS6KA1; enzyme activity, inhibitor; 10 µM): 0.11%
O=c1c(-c2ccc(Cl)c(CN3CCOCC3)c2)coc2cc(O)ccc12 — remaining activity (RPS6KA1; enzyme activity, inhibitor; 1 µM): 121%
Cc1cccc(O[C@H]2CCC[C@@H](C(C)CNCc3ccncc3)C2)c1 (relative stereo) — inhibition (RPS6KA1; enzyme activity, inhibitor; 10 µM): -3%
NC(=O)C[C@H]1CCc2sc3ncnc(O[C@H]4CC[C@H](N5CCOCC5)CC4)c3c21 — inhibition (RPS6KA1; enzyme activity, inhibitor; 10 µM): 23%
O=C(Cc1ccc(OCc2ccccc2)cc1)NC1(C(=O)O)CCN(C(=O)c2ccc(-c3cccc(Cl)c3)cc2)CC1 — activity vs control (RPS6KA1; enzyme activity, inhibitor; 10 µM): 129%
C=CC(=O)Nc1cc(-c2nn(C3CCN(CCNC(=O)[C@H](C)CCC45CC6CC(CC(C6)C4)C5)CC3)c3ncnc(N)c23)ccc1Oc1ccccc1 — inhibition (Ribosomal protein S6 kinase alpha-1, kinase domain 1 (RPS6KA1, Homo sapiens, UniProt Q15418); inhibitor, KiNativ profiling; biochemical; 2 µM): 24.3%
